Assay results pooled from the literature.
Compare with care: the assays were run in different laboratories.

| Structure (SMILES) | test system | conditions | Tmax [h] |
| --- | --- | --- | --- |
| CC(C)(O)c1ncc([S@](N)(=O)=NC(=O)Nc2c3c(cc4c2CCC4)CCC3)s1 | healthy human, fasted | oral, 100 mg single dose, spray-dried dispersion | 3 |
| CCCCCCCOc1ccc(CC[C@](N)(CO)COP(=O)(O)O)cc1C(F)(F)F | healthy human males, plasma | oral, 0.125 to 0.75 mg, day 1, median across doses | 12 |
| Cc1nc(C)c(C=[N+]([O-])C(C)(C)C)nc1C | healthy Chinese human, both sexes, serum | oral, 1200 mg twice daily, 7 days | 2.56 |
| CC12CC(c3ccc(S(C)(=O)=O)cc3)C3=C4CCC(=O)C=C4CCC3C1CCC2(O)C(F)(F)C(F)(F)F (stereo not drawn) | human, fasted, plasma | oral, 5 mg, [14C]-labelled, single dose, median | 1 |
| Cc1ccccc1-c1cc(N2CCNCC2)ncc1N(C)C(=O)C(C)(C)c1cc(C(F)(F)F)cc(C(F)(F)F)c1 | human, plasma | dose not given | 10 to 17 |
| O=C(CCc1ccc(CNC(C(=O)O)C2CCCCC2)cn1)NO (stereo not drawn) | human, plasma | oral, 20 mg once daily, day 1, median | 1 |
| CCc1c2c(nc3ccc(O)cc13)-c1cc3c(c(=O)n1C2)COC(=O)[C@]3(O)CC | human patients, plasma | intravenous, 100 mg/m^2 of parent drug | 1.86 |
| CCCCCCCCCC(O)CC(=O)CCc1ccc(O)c(OC)c1 (stereo not drawn) | healthy Indonesian humans, plasma | oral, 2 g red ginger suspension, single dose | 0.633 |
| Cn1c(=O)oc2ccc(-c3ccc(CC(C#N)NC(=O)C4CNCCCO4)c(F)c3)cc21 (stereo not drawn) | human, fed, plasma | 40 mg single dose, median | 4 |
| O=C(CCc1ccc(CNC(C(=O)OC2CCCC2)C2CCCCC2)cn1)NO (stereo not drawn) | human, plasma | oral, 20 mg once daily, day 1, median | 0.5 |
| CC(O)c1nc(-c2ccc3c(c2)CCC3NC(=O)c2cnn(C)c2)no1 (stereo not drawn) | human, plasma | oral, 20 mg, single dose, median | 5 |
| CCc1cc(Nc2nc(-c3ccc(-n4cnc(C)c4)c(F)c3)cs2)c(C)cc1C | human, both sexes, plasma | oral, 200 mg once daily, day 14, multiple dose, geometric mean | 3.7 |

Excerpt of the above:
| Structure (SMILES) | test system | conditions | Tmax [h] |
| --- | --- | --- | --- |
| Cn1c(=O)oc2ccc(-c3ccc(CC(C#N)NC(=O)C4CNCCCO4)c(F)c3)cc21 (stereo not drawn) | human, fed, plasma | 40 mg single dose, median | 4 |
| CC(C)(O)c1ncc([S@](N)(=O)=NC(=O)Nc2c3c(cc4c2CCC4)CCC3)s1 | healthy human, fasted | oral, 100 mg single dose, spray-dried dispersion | 3 |
